Measured values of several laboratories.
A part holds a random share of what one study measured. Changes are numbered by the printed parent chain.

Set 1 — technique: RNA Bind-n-Seq; molecule type: RNA; matrix: in vitro; concentration: not given; reference: input RNA pool; reading: higher = stronger binding
Target: RING finger protein unkempt homolog, zinc fingers 1-6, GST-SBP tag (UNK, Homo sapiens, UniProt Q9C0B0, residues 30-357)
Setting: RNA with constant flanks, human and mouse sites, ends assumed
All sequences stand within: GGGAGUUCUACAGUCCGACGAUC … CAACAGAGGAUUGAGCAUCA
Construct (chain): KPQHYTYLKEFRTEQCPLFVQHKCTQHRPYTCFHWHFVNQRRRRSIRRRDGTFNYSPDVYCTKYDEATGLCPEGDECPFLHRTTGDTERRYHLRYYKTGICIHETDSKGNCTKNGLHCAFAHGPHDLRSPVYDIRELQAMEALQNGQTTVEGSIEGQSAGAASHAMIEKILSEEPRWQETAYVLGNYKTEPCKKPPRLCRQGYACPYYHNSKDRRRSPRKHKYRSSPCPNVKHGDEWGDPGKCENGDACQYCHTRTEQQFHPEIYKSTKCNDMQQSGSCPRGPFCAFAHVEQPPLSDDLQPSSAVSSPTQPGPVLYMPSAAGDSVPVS
Strand	bound/input enrichment [ratio]
UCCGUAAACACAUUUUUGUUCUUAGUCUAUCUCUUGUACAAACGAUGUGCUUUGAAGAUGUUAGUGUAUAACAAUUGAUGUUUGUUUUCUGUUUGAUUUUAAACAGAGAAAAAAUAAAAG	1.32
ACAAAGCACUUCAUCUAUUUUUACUUGGGUCAAGUUGCAAUCCUCCUCUUCAAGUCAGGCUAGGUGGCCAUGGUGAAGGUGUCAGUGGCGGCGGCAGCGAUGGCAAGCAGGCGGCGUUGC	0.333
GGCAUGAAGGAUGACCGUCGGGACAGAUACUCUGCGGGCAAAAGGGGUGGAUUUAAUACCUUUAGAGACAGGGAAAAUUAUGACAGAGGUUACUCUAGCCUGCUUAAAAGAGAUUUUGGG	0.77
AGAAAAUAAAUGAUUUUUAAGUUAUGUCUAUUAAUCUGACUGUAGAUAUAUAUAUUUACCUCCUUAGUAAUGCAAGAAGUGUUUGUGGGAAGCAGAGAAGCAAGCAACUGUAUUUCUUGU	1.22
UUUCAUCUUCUGGAGUUAGAAAAGGUCCACGAACUAUGUGAUAACUUCUGCCACCGGUACAUUAGCUGUUUGAAGGGAAAAAUGCCCAUUGACCUCGUGAUUGAUGAGAGAGAUGGAAGC	0.451
ACUGGUCCUGAGAUUCCUGAAUCAGGUCCCUCCUCCGGCAUGUGUCAGCGCAACCCCCAGGUCUGCGGCCCAGGACGCUGCAUUUCCCGGCCCAGCGGCUACACCUGCGCUUGCGACUCU	0.161
CUGUCCAGCACUGCCACGCCCGUGGAGUUGUCCAUCGGGAUAUCAAGGAUGAGAACAUCCUGAUCGACCUAUGCCGGGGUUCCAUUAAACUCAUUGAUUUUGGUUCCGGCGCCCUGCUUC	0.0811

Set 2 — technique: Sort-seq; item: YFP reporter; matrix: E. coli; setting: PhoQ-PhoP variant library; together with: 10 µM Mg2+; reference: high Mg2+ state; reading: higher = stronger signaling
Molecule: PhoQ, residues 284 288 289 292 302 303 GASLAW
target	fold induction
PhoP, residues 12 14 15 18 19 LHTVL (Escherichia coli, UniProt P23836)	13.7
PhoP, residues 12 14 15 18 19 TQAML (Escherichia coli, UniProt P23836)	11.6
PhoP, residues 12 14 15 18 19 NQCAL (Escherichia coli, UniProt P23836)	4.54

Set 3 — target: CCNB2, cyclin fold, Cln2 fusion (human); technique: yeast growth competition, sequencing; matrix: yeast; setting: strong parent motif; reference: not given; reading: higher = stronger binding
Starting sequence: PKMYT1 docking peptide (human); SFEPRNLLSLFED; partner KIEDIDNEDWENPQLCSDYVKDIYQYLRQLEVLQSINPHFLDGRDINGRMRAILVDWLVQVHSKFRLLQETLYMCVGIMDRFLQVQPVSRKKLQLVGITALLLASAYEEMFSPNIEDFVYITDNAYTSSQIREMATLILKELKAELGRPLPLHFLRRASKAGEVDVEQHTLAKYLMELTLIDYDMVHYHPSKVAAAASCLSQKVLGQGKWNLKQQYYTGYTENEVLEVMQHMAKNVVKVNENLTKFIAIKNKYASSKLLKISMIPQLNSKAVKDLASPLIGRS
Variant	normalised enrichment score
E12Y	0.539
L10C	1.12
R5I	1.54
E3L	1.3
S1Q	1.23
P4N	-0.4
L7A	-0.468
R5L	1.42
E3R	1.28
S9Q	1.06
L8M	0.887
S1L	1.86
E3I	1.25
D13C	0.809
D13K	0.846
E3M	1.17
R5W	-0.186
N6G	-0.371

Set 4 — technique: DHFR PCA, deep sequencing; matrix: yeast; together with: (+)-ABA 4.8 µM; reference: wild-type fitted maximum; reading: higher = stronger binding
Target: ABI1, truncated, D143A, DHFR fusion (Arabidopsis thaliana)
Setting: methotrexate growth selection, single substitutions
Starting sequence: PYL1, truncated, DHFR fusion (Arabidopsis thaliana); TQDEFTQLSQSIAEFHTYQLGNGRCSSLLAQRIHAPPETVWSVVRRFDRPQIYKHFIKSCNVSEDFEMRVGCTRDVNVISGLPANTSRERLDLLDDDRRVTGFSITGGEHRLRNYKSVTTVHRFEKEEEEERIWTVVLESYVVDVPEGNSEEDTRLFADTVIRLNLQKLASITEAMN; partner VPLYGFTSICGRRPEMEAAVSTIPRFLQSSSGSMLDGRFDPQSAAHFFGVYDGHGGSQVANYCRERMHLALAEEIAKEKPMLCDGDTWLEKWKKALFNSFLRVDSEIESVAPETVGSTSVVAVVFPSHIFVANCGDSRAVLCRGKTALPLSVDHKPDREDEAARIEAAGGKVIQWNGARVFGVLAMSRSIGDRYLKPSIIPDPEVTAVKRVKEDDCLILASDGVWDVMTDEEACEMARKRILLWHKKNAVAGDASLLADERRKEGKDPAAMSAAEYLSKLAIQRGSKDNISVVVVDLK
Variant	relative binding score [%]
E139C	66.3
P37I	46.9
E109N	76.9
L20M	64.8
E64N	71.3
G107S	37.5
D159K	11.3
E151I	74
R111K	36
Y141G	-3.44
I12H	-6.95
H55I	83.4
V76D	-5.4
S104I	9.81
E64K	79.1
V161C	37.1

Repeated from above (set 1):
Strand	bound/input enrichment [ratio]
ACAAAGCACUUCAUCUAUUUUUACUUGGGUCAAGUUGCAAUCCUCCUCUUCAAGUCAGGCUAGGUGGCCAUGGUGAAGGUGUCAGUGGCGGCGGCAGCGAUGGCAAGCAGGCGGCGUUGC	0.333
CUGUCCAGCACUGCCACGCCCGUGGAGUUGUCCAUCGGGAUAUCAAGGAUGAGAACAUCCUGAUCGACCUAUGCCGGGGUUCCAUUAAACUCAUUGAUUUUGGUUCCGGCGCCCUGCUUC	0.0811
UUUCAUCUUCUGGAGUUAGAAAAGGUCCACGAACUAUGUGAUAACUUCUGCCACCGGUACAUUAGCUGUUUGAAGGGAAAAAUGCCCAUUGACCUCGUGAUUGAUGAGAGAGAUGGAAGC	0.451
UCCGUAAACACAUUUUUGUUCUUAGUCUAUCUCUUGUACAAACGAUGUGCUUUGAAGAUGUUAGUGUAUAACAAUUGAUGUUUGUUUUCUGUUUGAUUUUAAACAGAGAAAAAAUAAAAG	1.32
